Measured values from different studies.
Parts stem from different laboratories: compare values within a part only.

Series 1 — technique: aptamer microarray, sandwich; form: DNA with 2'F-ANA; matrix: in vitro; tested at: 200 nM; with: Cy3 exosite-II aptamer, 400 nM; reading: higher = stronger binding; oligonucleotide: GGTTGGTGTGGTTGG
Target: Prothrombin, mature alpha-thrombin (F2, Homo sapiens, UniProt P00734)
Notes: whole 15-mer aptamer, many near background
| Modification | mean fluorescence intensity [a.u.] |
| --- | --- |
| 2'F-ANA at 1 2 3 5 6 10 11 12 | 358 |
| 2'F-ANA at 1 6 8 10 11 12 | 69.1 |
| 2'F-ANA at 1 2 3 5 6 7 8 9 15 | 70.9 |
| 2'F-ANA at 4 6 8 11 14 | 84.9 |
| 2'F-ANA at 1 2 3 7 9 12 13 14 | 80.9 |
| 2'F-ANA at 2 3 5 6 7 9 13 14 15 | 49.2 |
| 2'F-ANA at 1 3 6 9 10 12 13 14 15 | 65.4 |
| 2'F-ANA at 2 3 6 7 9 10 11 13 14 | 227 |

Series 2 — technique: RNA Bind-n-Seq; form: RNA; matrix: in vitro; tested at: 100 nM; baseline: input RNA pool; reading: higher = stronger binding
Target: RING finger protein unkempt homolog, zinc fingers 1-6, SBP tag (UNK, Homo sapiens, UniProt Q9C0B0, residues 30-357)
Sequence of UniProt Q9C0B0 (30-357, looked up): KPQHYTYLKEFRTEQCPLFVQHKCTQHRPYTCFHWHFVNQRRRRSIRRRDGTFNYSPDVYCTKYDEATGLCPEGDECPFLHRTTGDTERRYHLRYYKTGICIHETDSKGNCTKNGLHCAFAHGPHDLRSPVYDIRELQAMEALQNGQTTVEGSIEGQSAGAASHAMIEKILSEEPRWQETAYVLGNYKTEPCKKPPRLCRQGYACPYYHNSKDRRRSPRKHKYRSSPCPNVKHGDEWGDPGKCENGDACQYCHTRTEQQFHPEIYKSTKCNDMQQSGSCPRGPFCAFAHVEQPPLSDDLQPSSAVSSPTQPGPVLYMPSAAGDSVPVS
Notes: RNA with constant flanks, vertebrate orthologous sites, ends assumed
| Oligonucleotide | bound/input enrichment [ratio] |
| --- | --- |
| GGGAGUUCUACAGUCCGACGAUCUUUGCUUUCUUGUCUUUUGACCUCAUUUCUUUAUUUUUAUCUUCAUUUUAUUUUCUUUUUCUAGUGUUGUUACCCACGCCAUUUUAUGUCUCCUUCACUGAAGGGCUAGAGUUUUAACUUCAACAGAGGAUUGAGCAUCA | 7.77 |
| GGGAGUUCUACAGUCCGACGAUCAGCGACCCAGGGAUUCAGGACUGGUUUUACAAAUAUGCCGGGUAGAUACGGAAGCAACAACAGAAUUGGACAACCAAGACCGUGAUGUACUCUUACCUUAUUUUUACAAGGAAUAUGUAGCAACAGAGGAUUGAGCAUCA | 0.37 |
| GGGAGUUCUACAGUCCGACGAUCAUUUUUACAAUCUUACUGUAUUUUCAAACAAUAGGGAACUUUUUUUUUUUUUUUACAGUUUAGUGUAUCUGGUUUCUACAUGGAAGACUUAAGUUCAUGCUUAUUGCUAAAUGUGGUCUUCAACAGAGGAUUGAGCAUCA | 0.759 |
| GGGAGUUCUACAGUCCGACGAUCAGCUCUAGUUCUUAACAACCAACACUCCUAAGAGAUUUAGAAAAAGUUUACAACAGAAUCUAGUUUACAAAGAAGUCUUGUGCUAGAAUACUUUUUAAAAGUAUUUUUGAAUACCAUUAACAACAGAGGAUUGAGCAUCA | 0.535 |
| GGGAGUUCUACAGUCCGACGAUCGGUUGAUGUUCUGAAGAACCACUUGGUAAAAGAAGGUCGGGUAGAUGAAGAAAUUGCACUUAGAAUUAUCAAUGAGGGUGCUGCCAUCCUUCGGAGAGAGAAAACCAUGAUAGAAGUAGACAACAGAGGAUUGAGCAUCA | 0.427 |
| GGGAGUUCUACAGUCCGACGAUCCAGGAGCUACAUAGACUGUUUGUGUUUUGGGAAAAUGAGCUUUGCUUUUUGAUAUUUAAAUAGGAUACUUUUAUAUGAUGGGUGCUCUGAGUGUGAAUGCAGCAAGCUCCAUUUCAGAGACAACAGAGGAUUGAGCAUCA | 1.31 |
| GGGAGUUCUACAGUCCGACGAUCACAUGUCUAUUGUGGCAUAUAGUCAACAUGGAAGUAGACCAGCUCUGCUGAUUUGAAAUUUAGAUUUUUUUAAUUAUGUACUGGGGACAGGUUUUUGUCGCUUUACAUUGCUUCCUAGUUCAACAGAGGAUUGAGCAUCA | 4.21 |
| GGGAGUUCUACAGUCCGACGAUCUGUUCUCUUUUCAUAGGUAUCAUUGCCCAAUGCCGAAGAUUUUUUAUGUUCAAUUGACUGUAGGAAAUAAUGAGUUCUUUGGUGAAGGGAAGACUCGACAAGCUGCCAGACAUAAUGCUGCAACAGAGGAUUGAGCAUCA | 0.532 |

Series 3 — technique: RNA Bind-n-Seq; form: RNA; matrix: in vitro; tested at: 20 nM; notes: 6-mer, flanks averaged, single round; with: 150 mM KCl; baseline: input library; reading: higher = stronger binding
Target: TAR DNA-binding protein 43, full length, His tag (TARDBP, Homo sapiens, UniProt Q13148, residues 1-414)
| Oligonucleotide | 6-mer enrichment (R) |
| --- | --- |
| ACCUUU | 0.625 |
| UCAUCC | 0.552 |
| GCAUGA | 1.04 |
| AACUCG | 0.622 |
| GAUCUC | 0.604 |
| UCGGAA | 0.811 |
| UGGGCA | 2.15 |
| AUGUUG | 0.884 |

Other studies, line by line
| SMILES | target | effect on | technique | tested at | endpoint | value |
| --- | --- | --- | --- | --- | --- | --- |
| CCOCCn1cc(C(=O)Nc2ccc(-n3nc(-c4cccnc4)cc3C(F)(F)F)cn2)ccc1=O | Receptor-type tyrosine-protein kinase FLT3 (FLT3, Homo sapiens, UniProt P36888, D835Y) | cell-free assay | competition with immobilised ligand | 1 µM | remaining binding | 98% |

A few entries again (series 1):
| Modification | mean fluorescence intensity [a.u.] |
| --- | --- |
| 2'F-ANA at 2 3 6 7 9 10 11 13 14 | 227 |
| 2'F-ANA at 1 3 6 9 10 12 13 14 15 | 65.4 |
